# Experimental data collected from several papers.
# Every numbered part comes from another study and shows a few of its results, in no order.

# Sample 1
# Target: Ras GTPase-activating protein-binding protein 1, C-terminal RGG region (G3BP1, Homo sapiens, UniProt Q13283)
# Sequence of UniProt Q13283 (whole entry, looked up): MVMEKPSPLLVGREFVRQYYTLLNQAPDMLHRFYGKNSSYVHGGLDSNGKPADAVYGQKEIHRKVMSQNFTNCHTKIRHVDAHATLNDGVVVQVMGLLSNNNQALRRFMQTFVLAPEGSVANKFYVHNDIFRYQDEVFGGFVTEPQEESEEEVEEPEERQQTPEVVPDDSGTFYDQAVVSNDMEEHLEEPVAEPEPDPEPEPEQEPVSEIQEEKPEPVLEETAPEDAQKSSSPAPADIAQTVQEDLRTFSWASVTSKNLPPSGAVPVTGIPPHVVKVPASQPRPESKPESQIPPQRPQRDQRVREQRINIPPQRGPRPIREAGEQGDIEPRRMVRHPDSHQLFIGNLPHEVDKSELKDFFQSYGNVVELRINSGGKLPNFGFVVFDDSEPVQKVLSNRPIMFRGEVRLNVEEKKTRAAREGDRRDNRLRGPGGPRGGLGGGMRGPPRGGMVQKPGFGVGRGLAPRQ
# Technique: RNA Bind-n-Seq
# Molecule type: RNA
# Medium: in vitro
# Concentration: 1 µM
# Setting: whole 134-nt RNA, ends assumed
# With: 150 mM KCl
# Baseline: input library
# Direction: higher = stronger binding
# Constant ends, left off below: GGGAGUUCUACAGUCCGACGAUC … UGGAAUUCUCGGGUGUCAAGG
Oligonucleotide,log2 enrichment
AAGUCCUGUGCUACACAUCGUAUGUACCGAAUCGGAAAGGAAAAAGGAAAAAAAGGAAAGUAUUAUGUUACGCCGUUCGGAUCUGCACUU,-2
CACGGACAACACGCACCCACACAGACACAGAGGGAAGGGGUUGGGAUGGGGACAGGGUGCACAGCAGGGCGGGGUAGGACCCCAGCCCCU,-0.227
CAAGUCCUGUGCUACACAUCGUAUGUACCGAAUCGGGGUUUGGGGAGGGGUGGGGAAAGUAUUAUGUUACGCCGUUCGGAUCUGCACUUC,2.67
AAGUCCUGUGCUACACAUCGUAUGUACCGAAUCGGUUUUUUUGGUGGAAAAAAAGGAAAGUAUUAUGUUACGCCGUUCGGAUCUGCACUU,-2.01
AAGUCCUGUGCUACACAUCGUAUGUACCGAAUCGGGGUGGGGUUUUUGGGGAGGGGAAAGUAUUAUGUUACGCCGUUCGGAUCUGCACUU,1.92
UAACUUUAGAGGAGGAUCUGUUGGAUAUGGCAGUGGACGUGGAUUUGGGGAUGGCUAUAAUGGGUAUGGAGGAGGACCUGGAGGUGGCAA,-0.505
ACCAUGCAGGUGGGCAUCUUUGGGAAGUGGGGCAAGGGGGGGAUAGGGAGGGGGGUAACACUUUGGGAACAGGUGGUCCCAGGUCGUAUC,1.44
UCCUGUGCUACACAUCGUAUGUACCGAAUCGGGGUUUUUGGGGAGGGGUUUUUUUGGGGAAAGUAUUAUGUUACGCCGUUCGGAUCUGCA,2.15
UAACUUUAGAGGAGGAUUUGAUGGAUAUGGCAGUGGACGUGGAUUUGGGGAUGGCUAUAAUGGGUAUGGAGGAGGACCUGGAGGUGGCAA,-1.45
GCAGGAAGUAAAAACAAAUGGAAAUGCUUCGGAUAGUGGCAGGGGUGGGGGUUGCUAAGGAAAGGUUGGGAUGGGAGUGGGUAAAGAGUU,2
UAACUUUAGUGGAGGAUCUGAUGGAUAUGGCAGUGGACGUGGAUUUGGGGAUGGCUAUAAUGGGUAUGGAGGAGGACCUGGAGGUGGCAA,-1.16
UCCUCAAGUCCUGUGCUACACAUCGUAUGUACCGAAUCGGAGGAGGGAGGGGAAAGUAUUAUGUUACGCCGUUCGGAUCUGCACUUCCAG,-0.262
CCUGUGCUACACAUCGUAUGUACCGAAUCGGGUUUUUGGGAAAAAAAGGGUUUUUUUGGGAAAGUAUUAUGUUACGCCGUUCGGAUCUGC,-1.88
CCUGUGCUACACAUCGUAUGUACCGAAUCGGGGUUUUUGGGGUUUGGGGAAAAAAAGGGGAAAGUAUUAUGUUACGCCGUUCGGAUCUGC,0.428

# Sample 2
# Target: Max-binding protein MNT, bHLH-zipper, MAX partner unstated (MNT, Homo sapiens, UniProt Q99583, residues 220-300)
# Technique: protein-binding microarray
# Molecule type: double-stranded DNA, one strand shown
# Medium: in vitro
# Concentration: not given
# Setting: k-mer, scored over probes, only values ≥0.25
# Direction: higher = stronger binding
# Target sequence (chain): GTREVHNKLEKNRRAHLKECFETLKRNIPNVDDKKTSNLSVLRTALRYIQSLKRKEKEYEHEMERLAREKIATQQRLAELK
Oligonucleotide,E-score
CGTGTGTC,0.349
ACGTGCCT,0.407
CCGCCACC,0.283
ACGAGGCT,0.259
GCATGAGA,0.268
CATGCTTC,0.392
ACGAGGAG,0.297
TAGCCCCA,0.307
CACGCACA,0.378
CGCGTGAC,0.447
GGGCACAC,0.255
CGTGGGTA,0.331
CCGCACGA,0.313
AAACCACG,0.397
GTGTGGGA,0.314
CATGAGGG,0.353
ATGTGCTG,0.356
GTCACGCA,0.351
CATGCCAC,0.372
CCCATGCG,0.419
ACTCGTGC,0.403

# Sample 3
# Target: Sal-like protein 4, full length isoform A (SALL4, Homo sapiens, UniProt Q9UJQ4, residues 1-1053)
# Sequence of UniProt Q9UJQ4 (whole entry, looked up): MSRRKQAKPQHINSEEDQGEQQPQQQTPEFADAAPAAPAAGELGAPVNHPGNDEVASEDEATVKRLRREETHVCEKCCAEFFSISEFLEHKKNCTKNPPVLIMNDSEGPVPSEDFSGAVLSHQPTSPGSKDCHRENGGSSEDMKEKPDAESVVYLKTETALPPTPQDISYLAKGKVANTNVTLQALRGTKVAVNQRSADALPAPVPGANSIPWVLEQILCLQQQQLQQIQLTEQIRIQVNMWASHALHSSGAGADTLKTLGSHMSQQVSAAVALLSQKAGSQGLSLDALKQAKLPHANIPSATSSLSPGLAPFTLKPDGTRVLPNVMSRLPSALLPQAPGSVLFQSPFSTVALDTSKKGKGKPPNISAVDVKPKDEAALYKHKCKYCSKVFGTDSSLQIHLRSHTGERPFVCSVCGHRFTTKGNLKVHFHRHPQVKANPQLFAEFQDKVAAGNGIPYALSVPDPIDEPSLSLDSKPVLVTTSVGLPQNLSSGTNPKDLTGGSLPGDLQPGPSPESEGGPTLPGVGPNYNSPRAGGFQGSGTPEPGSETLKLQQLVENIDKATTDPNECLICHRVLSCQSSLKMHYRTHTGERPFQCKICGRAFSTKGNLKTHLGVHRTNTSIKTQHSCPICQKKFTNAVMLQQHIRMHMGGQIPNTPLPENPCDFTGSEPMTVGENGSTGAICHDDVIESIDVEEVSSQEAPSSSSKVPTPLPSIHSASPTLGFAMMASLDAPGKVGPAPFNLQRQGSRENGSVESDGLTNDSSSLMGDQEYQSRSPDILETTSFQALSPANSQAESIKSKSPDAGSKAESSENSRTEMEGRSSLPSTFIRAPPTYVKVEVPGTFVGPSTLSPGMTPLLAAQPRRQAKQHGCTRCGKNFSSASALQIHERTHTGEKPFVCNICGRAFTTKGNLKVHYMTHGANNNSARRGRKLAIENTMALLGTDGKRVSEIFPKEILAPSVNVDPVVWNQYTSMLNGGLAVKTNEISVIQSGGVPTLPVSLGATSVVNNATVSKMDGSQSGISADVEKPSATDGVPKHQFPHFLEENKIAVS
# Technique: universal PBM
# Molecule type: double-stranded DNA, one strand shown
# Medium: in vitro
# Concentration: 600 nM
# Setting: 8-mer, flanks averaged, mean of replicates
# Direction: higher = stronger binding
Oligonucleotide,E-score
ACCATGCT,-0.0931
CCTGCGAC,-0.23
ACTGTTGA,0.125
CGGTCCAA,-0.318
TGGGGAAA,-0.0147
ATGCCGTG,-0.14
AGCGGATG,-0.268
ATACTGAC,0.182
ACCCACTC,-0.0519
ATCGACTC,-0.00962
CGTGTCGA,-0.18
GCGGCAAC,-0.23
ACATGCCA,0.00645
CCGGCGAC,-0.351
AACCCCCC,-0.347
CTTTGCCC,-0.25
AGTATTCA,0.217
ACAGAAGC,0.0404
CTCCTCGC,-0.218
CCTTGAGA,0.0252
ATGTGTAA,0.266
AAAATCGG,0.0953
AAGCTTCT,0.0944
CCTGCTAC,0.0268
AACGTCAC,-0.0165

# Sample 4
# Target: RNA binding protein fox-1 homolog 2, RRM domain, GST-SBP tag (RBFOX2, Homo sapiens, UniProt O43251-10, residues 100-194)
# Technique: RNA Bind-n-Seq
# Molecule type: RNA
# Medium: in vitro
# Concentration: 365 nM
# Setting: natural RNA segment, single round, ends assumed
# Baseline: no-protein control
# Direction: higher = stronger binding
# Constant ends, left off below: GGGAGUUCUACAGUCCGACGAUC … UGGAAUUCUCGGGUGCCAA
# Target sequence (chain): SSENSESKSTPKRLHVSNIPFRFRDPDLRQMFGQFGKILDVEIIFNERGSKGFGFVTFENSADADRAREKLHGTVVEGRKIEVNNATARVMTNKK
Oligonucleotide,RBNS enrichment (R)
AUAUGCAGCAAGCAAGGGUGACCUCCAGUGGCCCACUCAAGUCCAUGAGCCAUUAUCUAGGAUACUUUCUCUCUCUUUCAUGCAGUUCAAAGCCCAGGUAUCUCUCAGAU,0.296
UUGAAAAUACUCAGUGUAGAUCUCUAUGUGUAUAGGUAUCUGUAUAUCUUUCCUUUUGUUUACAACUGUUAAAAAACCUCAAAAUAGUUCUCUUCAAAAGAAGAGAGAUU,0.52
UGUGUAAAUAUUUUCCUCUCAGGGCAGGGGAAAGAGGACAGAGAAAGGAGCUGGUAGAAGCAGAGAGUGUAUUUCCCAUCUUGAAUGGGCCGGAGGUCUCGAAGCCUCAG,0.551
GCCUUCCUUCCCCCAGGGCCUAUUUCUUGUGUGGAUCACGUGGCAGUAGCAUGUUGCAGUCAGACGUCUCCACUACCCUGUUGAGAACAGCCUGGGAAUGUACAGGUCAU,36
UUUUGUUUUGUUUUCGGUUUAAAAACAACAACAAACUGUGUGCAUGCAGAAUACAGACCUUGAGGUUGGCUACUGUUCAAGACAGCUUCAGUCUCUCUACCACAUUCCAU,5.46
CCACCAGAUAUCAAGUACUCAUGACUUGACUCCCAAAUGCGCCGUUACAGGGCUAAGUUAAAGCCAGACUUUAAAGUUCUGUCACGGUGGUAAGGAAAGAAACAGGAGGU,0.443
AUGGCAAGCUCCCAGAUUCCUUCCAGGAAAGUCAACUGUGUCUUAAGGCUUUGCGGCCUGCGCAGACUAUAUCCUGCUUCAGACUAGAUACAAUUGCCCCUUUUUAUAUA,0.209
UAAACCCAGCCCCCAAGCUGAGACCAGUCUCCCUGUGGCGGAGCCAGCCAAGAUGGGGCCAUUCUCUCUGUGGAGGAGCCCCUUCCAGCCUUUGUCAGGAAGUGUCUUUG,0.241
CAGUAUAUGUUCCAGCUGCAGAGAGCAGACUGCUCUCAGCUUGCCUAGCACCUUAGGGGAGGGAAGAUAAAUGGAUAGGUAAUGGGGUGGAGGAAGGAUGGGGAUUUUGU,0.787
UAAUAAAGGUGGUAGAUUUCAUUAAGGUUUUAGAUCAAAACUUUGAAUAAAUCAAAAACGUUCAUUCUAUUCUCUGCAACCCUUCUCAUAUUUUAUAGGUUUAGAUGGAA,0.468
GGAGUGGGGACAGUGGACAGAGCAUACCUGGUGGCAGGUUGGGAGGGGCCACUCAGCGUCCCCCCCAUUUCUCAGAAAAUCUCCAGUCCCACCCAGGGACCCCACCCUGG,0.204
GCAGGUUCUCUGCCCUCCCUAGGGGUUGGGGAAGGACCCACCCCGGUCAGCACAGUGCCUUUUCCUCUCCUGCUCUGAGCCAGGGUGGGGCAUUCCCUCUAGAUUCAGGU,0.454

# Sample 5
# Target: Histone acetyltransferase KAT6A, both winged helices, GST fusion (KAT6A, Homo sapiens, UniProt Q92794, residues 1-181)
# Technique: protein binding microarray
# Molecule type: double-stranded DNA, one strand shown
# Medium: in vitro
# Concentration: not given
# Setting: 8-mer, flanks averaged, mean of 2 arrays, mostly near background
# Baseline: not given
# Direction: higher = stronger binding
# Target sequence (chain): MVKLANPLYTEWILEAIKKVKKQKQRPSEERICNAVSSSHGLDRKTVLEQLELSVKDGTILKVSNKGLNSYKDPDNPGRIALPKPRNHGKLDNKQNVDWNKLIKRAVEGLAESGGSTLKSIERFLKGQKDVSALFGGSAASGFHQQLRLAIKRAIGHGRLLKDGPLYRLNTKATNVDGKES
Oligonucleotide,E-score
AACGCCCG,0.182
AACCGCAG,0.0784
AGGCGGGA,0.186
GAATGAAC,0.0659
GATCCCCA,-0.163
AGGATCTA,-0.17
GTGCCAAC,-0.119
GCTGATAA,0.0826
CAGGTGAC,-0.0398
ACGTAATC,-0.00045
ACCCACTG,-0.0669
ATCTTGGG,-0.103
AGCTTTGC,-0.138
CATTTGAA,0.038
ACATTTTG,-0.15
GTTTATTA,0.109

# Sample 6
# Target: TAR DNA-binding protein 43, full length, His tag (TARDBP, Homo sapiens, UniProt Q13148, residues 1-414)
# Technique: RNA Bind-n-Seq
# Molecule type: RNA
# Medium: in vitro
# Concentration: 20 nM
# Setting: 6-mer, flanks averaged, single round
# With: 150 mM KCl
# Baseline: input library
# Direction: higher = stronger binding
Oligonucleotide,6-mer enrichment (R)
GGUAAA,1.03
GAUUAU,0.601
UGGACA,0.902
CCACUG,0.71
GAUGCU,0.783
GUGCUU,0.809
GAGGCG,3.81
CCUAUU,0.608
GGUUAA,0.885
CGGUCA,0.793
GGAACC,1
AUCCAA,0.579
UGUUUU,0.774
CUGCCU,0.637
AAGGGC,2
AACAAU,0.97
UCUCGC,0.586
CUCAUA,0.56
CAACGU,0.641
AUGGAG,1.62
CCUUAU,0.618
UGAGCU,0.767
AAUGGG,2.12
GCACAC,0.785
CCUAUA,0.602

# Some of these lines once more (sample 5):
Oligonucleotide,E-score
GCTGATAA,0.0826
CATTTGAA,0.038
ACCCACTG,-0.0669
AACGCCCG,0.182
CAGGTGAC,-0.0398
AGGCGGGA,0.186
GATCCCCA,-0.163
